Values quoted from earlier work as cited in several papers.
Lines come from different studies, so protocols differ. pIC50, pKd, pKi: −log10 of the molar value.

For `O=P1(N(CCCl)CCCl)NCCCO1` (centres unmarked), activity read “inactive” (Cryptosporidium parvum; concentration not given).
With `NC(=O)c1ccc2nc(-c3ccc(C4(N)CCC4)cc3)c(-c3ccccc3)n2n1` the pKd was 6.51 (CLK1; KINOMEscan).
Under activity, `CC(C)c1cccc(C(C)C)c1O` is recorded as “inactive” (Cryptosporidium parvum; concentration not given).
`OCCN1CCN(CCC=C2c3ccccc3Sc3ccc(C(F)(F)F)cc32)CC1`: “log2 fold change” 1.17 (MCF7; microarray, refers to: TES mRNA; concentration not given; relative to: DMSO).
The pIC50 of `CN1CCN(C(=O)C(C)(C)c2ccc(C(=O)Nc3cn4cc(-c5ccncc5)ccc4n3)cc2)CC1` is reported as 6.59 (DYRK1A; kinase activity).
The pIC50 of `NCC(CC(=O)O)c1ccc(Cl)cc1` (centres unmarked) is reported as under 5.00 (dopamine transporter).
The pKi of `CNC(=N)NCCC[C@H](NC(=O)[C@H](CC(C)C)NC(=O)NNC(=O)[C@H](Cc1ccccc1)NC(=O)[C@H](CO)NC(=O)[C@H](CC(N)=O)NC(=O)[C@@H](Cc1ccncc1)NC(=O)[C@H](N)Cc1ccc(O)cc1)C(=O)N[C@@H](Cc1ccccc1)C(N)=O` is reported as 10.05 (KISS1R human).
For `CNC1(c2ccccc2Cl)CCCCC1=O` (centres unmarked), the pIC50 was under 5.00 (dopamine transporter).
